Measured values gathered from unrelated publications.
Each numbered part is a random draw from the data of one study; scales do not carry over between parts. Substitutions count along the parent as printed.

Sample 1
Target: Ras GTPase-activating protein-binding protein 1, C-terminal RGG region (G3BP1, Homo sapiens, UniProt Q13283)
Chain of UniProt Q13283 (whole entry, looked up): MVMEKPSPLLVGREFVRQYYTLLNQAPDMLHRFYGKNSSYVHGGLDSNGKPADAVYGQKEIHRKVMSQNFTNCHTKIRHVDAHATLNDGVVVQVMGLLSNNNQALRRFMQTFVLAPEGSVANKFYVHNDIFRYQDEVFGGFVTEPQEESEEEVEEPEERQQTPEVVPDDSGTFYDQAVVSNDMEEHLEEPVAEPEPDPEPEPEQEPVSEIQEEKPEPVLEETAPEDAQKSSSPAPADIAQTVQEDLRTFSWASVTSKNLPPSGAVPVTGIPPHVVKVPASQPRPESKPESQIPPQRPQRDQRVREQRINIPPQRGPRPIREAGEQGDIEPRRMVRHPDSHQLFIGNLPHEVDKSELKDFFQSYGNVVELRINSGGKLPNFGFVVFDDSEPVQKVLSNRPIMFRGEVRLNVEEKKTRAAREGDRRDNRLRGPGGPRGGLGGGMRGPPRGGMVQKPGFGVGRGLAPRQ
Method: RNA Bind-n-Seq
Form: RNA
Medium: in vitro
Concentration: 1 µM
Notes: whole 134-nt RNA, ends assumed
Added: 150 mM KCl
Reference: input library
Reading: higher = stronger binding
All sequences stand within: GGGAGUUCUACAGUCCGACGAUC … UGGAAUUCUCGGGUGUCAAGG
`CAAGUCCUGUGCUACACAUCGUAUGUACCGAAUCGGGGAAAGGGGAAAGGAAAGGGAAAGUAUUAUGUUACGCCGUUCGGAUCUGCACUU` has a log2 enrichment of -1.23.
With `UAGCAUAUUGCCUUGUUCACUACCGAGGAGAUGAGAAGAUUAAAGGUUUCAUAUGGGAUCUCAUUACUCCAACUGAAGAUGGACAGACAC` the log2 enrichment was -0.928.
The log2 enrichment of `CCUGUGCUACACAUCGUAUGUACCGAAUCGGGGUUUUUUUGGGGAAAGGGGUUUUUGGGGAAAGUAUUAUGUUACGCCGUUCGGAUCUGC` is reported as 0.75.
`CUGUGCUACACAUCGUAUGUACCGAAUCGGGCCCCCCCGGGCCCCCCCGGGCCCCCCCGGGAAAGUAUUAUGUUACGCCGUUCGGAUCUG` has a log2 enrichment of -1.93.
The log2 enrichment of `AGUCCUGUGCUACACAUCGUAUGUACCGAAUCGGGUUUUGGGGUUUUGGGUUUUGGGAAAGUAUUAUGUUACGCCGUUCGGAUCUGCACU` is reported as 1.12.
With `UCCUCCCUGGCUUCAGCCAGUCCCUGACGCUGAGCACUGGCUUCCGAGUCAUCAAGAAGAAGCUGUACAGCUCGGAACAGCUGCUCAUUG` the log2 enrichment was -1.3.
The log2 enrichment of `CAAGUCCUGUGCUACACAUCGUAUGUACCGAAUCGGCCCCGGCCCCGGCCCCGGGGAAAGUAUUAUGUUACGCCGUUCGGAUCUGCACUU` is reported as -2.6.
For `CACAGACAACACGCACCCACACAGACACAGAGGGAAGGGGUUGGGAUGGGGACAGGGUGCACAGCAGGGCGGGGUAGGACCCCAGCCCUU`, the log2 enrichment was -1.08.
The log2 enrichment of `CCUGUGCUACACAUCGUAUGUACCGAAUCGGGGAAAAAAAGGAAAAAAAGGAAAAAAAGGGAAAGUAUUAUGUUACGCCGUUCGGAUCUG` is reported as -1.81.

Sample 2
Target: CCNF, cyclin fold, Cln2 fusion (human)
Method: yeast growth competition, sequencing
Medium: yeast
Notes: strong parent motif
Reference: not given
Reading: higher = stronger binding
Starting sequence: INSM1 docking peptide (human); PKAIRKLHFEDEV
For `D11N`, “normalised enrichment score” read 7.75.
`E10Y`: “normalised enrichment score” 7.23.
Under “normalised enrichment score”, `H8W` is recorded as 7.31.
`H8P` — result for “normalised enrichment score”: 2.82.
`I4N`: “normalised enrichment score” 7.71.
Under “normalised enrichment score”, `K6V` is recorded as 6.36.

Sample 3
Target: Interferon regulatory factor 5, full length, phosphomimetic (IRF5, Homo sapiens, UniProt Q13568-2, residues 1-514, K96S/S451D/S453D/S456D/S462D)
Method: protein-binding microarray
Form: double-stranded DNA, one strand shown
Medium: in vitro
Concentration: 250 nM
Notes: 60-bp whole probe
Added: salmon DNA 0.4 mg/ml
Reference: random background probes
Reading: higher = stronger binding
All sequences stand within: GCCTAGCAC … GTCTTGATTCGCTTGACGCTGCTG
`TTAGTTATCGGGACTGGATTAGTGCTA` has a log fluorescence of 1.77 z-score.
For `CTTTCTCCCAAGTCTTGTTTTGTGCTA`, the log fluorescence was 1.83 z-score.
`TCATTTTTTAATTGAGAACTGTGCTAG` has a log fluorescence of 0.398 z-score.
`TCAAGTCTCATATTTATACTGTGCTAG` gave a log fluorescence of 0.762 z-score.
For `GACGGTTTCCTTATCCTGATGTGCTAG`, the log fluorescence was 0.95 z-score.
`GACGGTTTCGACACTGGGTACGTGCTA` has a log fluorescence of 4.68 z-score.
The log fluorescence of `AGCAAGCCCCTTCCTTTCGGGTGCTAG` is reported as 2.27 z-score.
`GACGGACTAGACTATCGGGACGTGCTA` gave a log fluorescence of 0.896 z-score.
`TCAGCTCACGCTTTGGAACTGTGCTAG` has a log fluorescence of -0.365 z-score.
For `GACGGACTGCTTTTACTGACGTGCTAG`, the log fluorescence was -0.199 z-score.

Other studies, line by line
`PhoQ, residues 284 288 289 292 302 303 GTAMQF` has a fold induction of 6.53 (PhoP, residues 12 14 15 18 19 STHWV (Escherichia coli, UniProt P23836); Sort-seq, measured: YFP reporter; E. coli; PhoQ-PhoP variant library, added: 10 µM Mg2+; reference: high Mg2+ state, higher = stronger signaling).

Some of these lines once more (sample 3):
`TCAAGTCTCATATTTATACTGTGCTAG` gave a log fluorescence of 0.762 z-score.
For `GACGGTTTCCTTATCCTGATGTGCTAG`, the log fluorescence was 0.95 z-score.
`GACGGTTTCGACACTGGGTACGTGCTA` has a log fluorescence of 4.68 z-score.
